Published values gathered from unrelated publications.
Numbered parts are unrelated; each lists some results of a single study. Values joined by “and” are separate records of one study, mostly repeats; a detail may differ.
Chain of UniProt Q14012 (whole entry, looked up): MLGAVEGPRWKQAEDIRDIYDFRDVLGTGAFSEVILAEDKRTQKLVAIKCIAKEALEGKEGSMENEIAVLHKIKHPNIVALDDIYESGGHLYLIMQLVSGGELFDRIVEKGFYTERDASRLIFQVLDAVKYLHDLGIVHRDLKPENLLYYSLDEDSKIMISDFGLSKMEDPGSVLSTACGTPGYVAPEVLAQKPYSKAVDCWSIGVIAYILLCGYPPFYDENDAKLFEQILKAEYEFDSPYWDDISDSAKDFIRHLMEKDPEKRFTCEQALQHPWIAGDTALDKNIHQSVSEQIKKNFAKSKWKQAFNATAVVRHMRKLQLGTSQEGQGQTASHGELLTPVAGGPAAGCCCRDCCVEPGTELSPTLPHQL
Chain of UniProt P17948 (whole entry, looked up): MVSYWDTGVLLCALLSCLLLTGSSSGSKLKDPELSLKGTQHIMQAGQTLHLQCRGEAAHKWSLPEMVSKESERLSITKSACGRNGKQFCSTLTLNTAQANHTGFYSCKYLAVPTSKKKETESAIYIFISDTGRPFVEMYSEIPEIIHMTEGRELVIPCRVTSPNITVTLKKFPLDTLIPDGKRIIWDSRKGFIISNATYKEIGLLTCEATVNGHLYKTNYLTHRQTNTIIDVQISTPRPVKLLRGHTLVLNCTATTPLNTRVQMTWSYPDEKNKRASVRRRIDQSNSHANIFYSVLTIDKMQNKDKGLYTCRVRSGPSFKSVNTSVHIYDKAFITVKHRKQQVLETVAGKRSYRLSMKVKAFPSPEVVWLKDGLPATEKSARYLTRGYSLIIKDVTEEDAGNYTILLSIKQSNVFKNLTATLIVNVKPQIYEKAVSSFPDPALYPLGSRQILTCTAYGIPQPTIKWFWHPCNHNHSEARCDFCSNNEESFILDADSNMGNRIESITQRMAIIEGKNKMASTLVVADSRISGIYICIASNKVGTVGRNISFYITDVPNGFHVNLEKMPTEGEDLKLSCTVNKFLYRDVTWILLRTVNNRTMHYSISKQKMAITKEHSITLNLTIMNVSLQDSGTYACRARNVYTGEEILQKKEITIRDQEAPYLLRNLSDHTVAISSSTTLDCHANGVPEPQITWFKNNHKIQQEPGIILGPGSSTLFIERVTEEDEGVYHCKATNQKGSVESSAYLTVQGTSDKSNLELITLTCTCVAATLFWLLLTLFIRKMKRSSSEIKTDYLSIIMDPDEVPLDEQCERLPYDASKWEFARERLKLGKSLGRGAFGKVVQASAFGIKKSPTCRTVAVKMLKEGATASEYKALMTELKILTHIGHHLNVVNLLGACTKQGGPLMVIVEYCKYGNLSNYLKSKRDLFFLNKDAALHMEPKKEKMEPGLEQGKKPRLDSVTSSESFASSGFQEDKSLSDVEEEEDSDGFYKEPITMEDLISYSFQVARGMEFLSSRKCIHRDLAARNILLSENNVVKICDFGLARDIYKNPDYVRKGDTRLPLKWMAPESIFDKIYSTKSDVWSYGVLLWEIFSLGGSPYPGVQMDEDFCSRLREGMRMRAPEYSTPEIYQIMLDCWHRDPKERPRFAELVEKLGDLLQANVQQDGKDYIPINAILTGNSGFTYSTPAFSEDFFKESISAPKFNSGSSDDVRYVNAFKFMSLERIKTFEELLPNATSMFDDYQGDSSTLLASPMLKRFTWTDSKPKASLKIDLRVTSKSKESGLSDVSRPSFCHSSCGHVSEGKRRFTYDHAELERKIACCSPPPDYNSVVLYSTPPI
Chain of UniProt Q9NYL2 (whole entry, looked up): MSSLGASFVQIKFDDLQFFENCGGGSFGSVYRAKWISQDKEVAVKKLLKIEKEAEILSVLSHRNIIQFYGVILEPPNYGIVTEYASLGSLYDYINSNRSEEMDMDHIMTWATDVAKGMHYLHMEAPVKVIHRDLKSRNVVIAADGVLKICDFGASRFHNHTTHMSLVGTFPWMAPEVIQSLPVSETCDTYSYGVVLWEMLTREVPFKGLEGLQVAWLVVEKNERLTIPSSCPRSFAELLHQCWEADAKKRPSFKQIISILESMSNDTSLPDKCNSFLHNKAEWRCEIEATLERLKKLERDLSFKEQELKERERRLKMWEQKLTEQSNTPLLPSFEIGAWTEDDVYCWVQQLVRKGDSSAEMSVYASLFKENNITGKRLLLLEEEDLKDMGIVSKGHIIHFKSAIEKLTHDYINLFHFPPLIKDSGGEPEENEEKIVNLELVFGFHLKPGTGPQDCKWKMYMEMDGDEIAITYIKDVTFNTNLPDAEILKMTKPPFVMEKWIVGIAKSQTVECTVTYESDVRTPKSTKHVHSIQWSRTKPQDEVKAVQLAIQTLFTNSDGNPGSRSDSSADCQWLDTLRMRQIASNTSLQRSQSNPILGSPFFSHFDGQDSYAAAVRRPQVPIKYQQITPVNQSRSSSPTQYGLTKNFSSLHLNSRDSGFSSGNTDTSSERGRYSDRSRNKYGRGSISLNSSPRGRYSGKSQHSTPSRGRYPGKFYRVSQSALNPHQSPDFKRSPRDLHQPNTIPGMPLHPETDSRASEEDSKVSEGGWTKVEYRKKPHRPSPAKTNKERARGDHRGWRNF
Chain of UniProt Q59H18 (whole entry, looked up): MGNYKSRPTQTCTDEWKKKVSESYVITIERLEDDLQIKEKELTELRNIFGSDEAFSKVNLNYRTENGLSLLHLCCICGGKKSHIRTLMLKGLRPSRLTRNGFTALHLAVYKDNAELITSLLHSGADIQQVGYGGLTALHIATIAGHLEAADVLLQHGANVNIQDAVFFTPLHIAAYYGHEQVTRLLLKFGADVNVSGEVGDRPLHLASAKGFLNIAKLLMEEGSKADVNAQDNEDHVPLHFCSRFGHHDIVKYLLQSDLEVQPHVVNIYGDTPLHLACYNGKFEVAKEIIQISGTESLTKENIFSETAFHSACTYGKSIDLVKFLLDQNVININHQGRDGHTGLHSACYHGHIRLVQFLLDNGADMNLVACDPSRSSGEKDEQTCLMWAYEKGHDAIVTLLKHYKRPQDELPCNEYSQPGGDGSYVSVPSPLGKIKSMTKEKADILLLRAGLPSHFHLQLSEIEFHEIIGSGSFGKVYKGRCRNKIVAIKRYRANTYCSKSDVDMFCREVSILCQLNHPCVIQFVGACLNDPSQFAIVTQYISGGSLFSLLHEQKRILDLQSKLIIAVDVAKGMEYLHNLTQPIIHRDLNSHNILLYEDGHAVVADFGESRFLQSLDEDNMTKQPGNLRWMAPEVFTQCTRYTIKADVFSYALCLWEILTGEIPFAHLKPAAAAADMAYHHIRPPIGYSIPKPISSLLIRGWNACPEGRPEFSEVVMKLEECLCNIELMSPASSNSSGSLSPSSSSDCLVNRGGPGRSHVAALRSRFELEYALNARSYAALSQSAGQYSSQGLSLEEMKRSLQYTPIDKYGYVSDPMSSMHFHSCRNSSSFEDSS
Chain of UniProt Q13153 (whole entry, looked up): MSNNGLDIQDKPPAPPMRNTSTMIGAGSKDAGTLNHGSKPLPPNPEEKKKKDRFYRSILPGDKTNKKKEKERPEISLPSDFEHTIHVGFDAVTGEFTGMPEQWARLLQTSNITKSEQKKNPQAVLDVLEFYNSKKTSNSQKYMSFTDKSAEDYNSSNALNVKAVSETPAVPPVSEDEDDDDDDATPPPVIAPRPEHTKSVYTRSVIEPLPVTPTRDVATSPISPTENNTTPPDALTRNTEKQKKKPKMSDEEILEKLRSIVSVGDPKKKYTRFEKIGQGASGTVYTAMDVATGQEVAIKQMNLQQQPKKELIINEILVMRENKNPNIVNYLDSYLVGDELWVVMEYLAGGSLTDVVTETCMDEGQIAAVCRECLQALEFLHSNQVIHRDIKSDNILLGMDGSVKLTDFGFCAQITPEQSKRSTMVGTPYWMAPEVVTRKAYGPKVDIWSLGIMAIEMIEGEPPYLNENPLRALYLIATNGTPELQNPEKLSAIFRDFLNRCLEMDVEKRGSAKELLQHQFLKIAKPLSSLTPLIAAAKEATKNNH
Chain of UniProt P29317 (whole entry, looked up): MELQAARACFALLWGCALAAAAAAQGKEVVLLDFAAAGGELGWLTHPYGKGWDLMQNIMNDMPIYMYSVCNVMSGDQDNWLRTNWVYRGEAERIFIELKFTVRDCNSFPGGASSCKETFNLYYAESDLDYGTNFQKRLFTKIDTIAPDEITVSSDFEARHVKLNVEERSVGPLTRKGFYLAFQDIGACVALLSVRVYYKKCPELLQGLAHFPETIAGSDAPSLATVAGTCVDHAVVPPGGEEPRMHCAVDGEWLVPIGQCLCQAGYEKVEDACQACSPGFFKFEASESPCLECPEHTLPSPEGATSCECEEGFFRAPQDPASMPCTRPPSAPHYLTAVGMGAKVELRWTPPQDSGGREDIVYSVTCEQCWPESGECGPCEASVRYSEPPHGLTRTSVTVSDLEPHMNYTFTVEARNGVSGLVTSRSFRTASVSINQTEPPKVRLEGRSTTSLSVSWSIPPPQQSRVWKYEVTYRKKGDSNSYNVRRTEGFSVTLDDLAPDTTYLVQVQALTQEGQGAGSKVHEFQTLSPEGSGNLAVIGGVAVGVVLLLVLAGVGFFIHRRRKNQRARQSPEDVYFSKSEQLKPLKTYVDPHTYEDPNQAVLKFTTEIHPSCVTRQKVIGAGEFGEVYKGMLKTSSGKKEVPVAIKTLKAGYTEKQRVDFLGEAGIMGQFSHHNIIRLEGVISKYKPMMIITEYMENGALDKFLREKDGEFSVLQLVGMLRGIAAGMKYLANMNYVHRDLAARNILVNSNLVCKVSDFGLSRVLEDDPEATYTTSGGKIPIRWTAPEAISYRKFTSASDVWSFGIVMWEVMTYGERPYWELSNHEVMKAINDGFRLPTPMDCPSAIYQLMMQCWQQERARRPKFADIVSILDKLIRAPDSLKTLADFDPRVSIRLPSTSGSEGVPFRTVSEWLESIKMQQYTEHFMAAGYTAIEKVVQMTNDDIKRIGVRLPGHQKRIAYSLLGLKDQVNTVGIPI

Set 1
Cell line: A-375
Concentration: 100 µM
Time: 36 h
| SMILES | viability |
| --- | --- |
| Cc1[nH]cnc1CN1CCc2c(c3ccccc3n2C)C1=O | 82.8% |
| Cc1cc(Nc2ncc(Cl)c(Nc3ccccc3S(=O)(=O)C(C)C)n2)c(OC(C)C)cc1C1CCNCC1 | 1.11% |
| CC1Cc2ccccc2N1NC(=O)c1ccc(Cl)c(S(N)(=O)=O)c1 (centres unmarked) | 93.6% |
| O=C(O[C@H]1CN2CCC1CC2)N1CCc2ccccc2[C@@H]1c1ccccc1 | 0.0413% |
| CCCCCCCCCCCCCCCCOc1nc2ccc(C)cc2c(=O)o1 | 103% |
| COC(c1ccccc1)(c1ccccc1)[C@H](Oc1nc(C)cc(C)n1)C(=O)O | 97% |
| CO/N=C(\C(=O)N[C@@H]1C(=O)N2C(C(=O)O)=C(COC(C)=O)CS[C@H]12)c1csc(N)n1 | 112% |
| CC(C)c1nc(N(C)S(C)(=O)=O)nc(-c2ccc(F)cc2)c1/C=C/[C@@H](O)C[C@@H](O)CC(=O)O | 57.6% and 96.7% |
| CC[C@H](C)[C@H](N)C1=N[C@H](C(=O)N[C@@H](CC(C)C)C(=O)N[C@H](CCC(=O)O)C(=O)N[C@H](C(=O)N[C@H]2CCCCNC(=O)[C@H](CC(N)=O)NC(=O)[C@@H](CC(=O)O)NC(=O)[C@H](Cc3cnc[nH]3)NC(=O)[C@@H](Cc3ccccc3)NC(=O)[C@H]([C@@H](C)CC)NC(=O)[C@@H](CCCN)NC2=O)[C@@H](C)CC)CS1 | 83.9% |
| Clc1ccc2nsnc2c1NC1=NCCN1 | 129% |
| CC(=O)O[C@H]1Cc2ccccc2N(C(N)=O)c2ccccc21 | 111% |
| COc1cc([C@H]2Oc3cc([C@H]4Oc5cc(O)cc(O)c5C(=O)[C@@H]4O)ccc3O[C@@H]2CO)ccc1O | 82.8% |
| N[C@@H](Cc1cc(I)c(Oc2cc(I)c(O)c(I)c2)c(I)c1)C(=O)O | 97.5% |
| N[C@@H](CCC(=O)N[C@@H](CS)C(=O)NCC(=O)O)C(=O)O | 83.1% |

Set 2
Structure (SMILES): CN(C)C(=O)Cn1cc(-c2nc(C3(c4ccc(-c5cnc(N)nc5)cc4)CC3)no2)cn1
Technique: competition with immobilised ligand
Concentration: 1 µM
| target | test | remaining binding |
| --- | --- | --- |
| cAMP-dependent protein kinase catalytic subunit PRKX (PRKX, Homo sapiens, UniProt P51817) | cell-free assay | 100% |
| MAP kinase-activated protein kinase 2 (MAPKAPK2, Homo sapiens, UniProt P49137) | cell-free assay | 99% |
| Calcium/calmodulin-dependent protein kinase kinase 2 (CAMKK2, Homo sapiens, UniProt Q96RR4) | cell-free assay | 100% |
| Serine/threonine-protein kinase Nek7 (NEK7, Homo sapiens, UniProt Q8TDX7) | cell-free assay | 100% |
| Mast/stem cell growth factor receptor Kit (KIT, Homo sapiens, UniProt P10721, D816H) | cell-free assay | 85% |
| Serine/threonine-protein kinase TNNI3K (TNNI3K, Homo sapiens, UniProt Q59H18) | cell-free assay | 100% |
| Calcium/calmodulin-dependent protein kinase type 1 (CAMK1, Homo sapiens, UniProt Q14012) | cell-free assay | 100% |
| Epidermal growth factor receptor (EGFR, Homo sapiens, UniProt P00533, L858R/T790M) | cell-free assay | 97% |
| Tyrosine-protein kinase ABL2 (ABL2, Homo sapiens, UniProt P42684) | cell-free assay | 84% |
| Tyrosine-protein kinase ABL1, phosphorylated (ABL1, Homo sapiens, UniProt P00519, Y253F) | cell-free assay | 98% |
| Cyclin-dependent kinase 4, with cyclin D3 (CDK4, Homo sapiens, UniProt P11802) | cell-free assay | 100% |
| Phosphatidylinositol 3-kinase catalytic subunit type 3 (PIK3C3, Homo sapiens, UniProt Q8NEB9) | cell-free assay | 96% |
| Wee1-like protein kinase 2 (WEE2, Homo sapiens, UniProt P0C1S8) | cell-free assay | 99% |
| Cyclin-dependent kinase 11A (CDK11A, Homo sapiens, UniProt Q9UQ88) | binding | 89% |
| Vascular endothelial growth factor receptor 1 (FLT1, Homo sapiens, UniProt P17948) | cell-free assay | 100% |
| Cyclin-dependent kinase 14 (CDK14, Homo sapiens, UniProt O94921) | cell-free assay | 100% |
| Tyrosine-protein kinase ABL1, phosphorylated (ABL1, Homo sapiens, UniProt P00519) | cell-free assay | 100% |
| Cyclin-G-associated kinase (GAK, Homo sapiens, UniProt O14976) | cell-free assay | 100% |

Set 3
Structure (SMILES): CCN(CC)CCCCN1c2ccccc2Oc2ccc(Cl)cc21
Observed: enzyme activity
Action: inhibitor
Concentration: 0.5 µM
Reference: control
| target | remaining activity |
| --- | --- |
| Tyrosine-protein kinase Tec (TEC, Homo sapiens, UniProt P42680) | 157% |
| Dual specificity protein kinase CLK1 (CLK1, Homo sapiens, UniProt P49759) | 110% |
| Insulin-like growth factor 1 receptor (IGF1R, Homo sapiens, UniProt P08069) | 89.4% |
| Serine/threonine-protein kinase PAK 6 (PAK6, Homo sapiens, UniProt Q9NQU5) | 102% |
| Mitogen-activated protein kinase kinase kinase 20 (MAP3K20, Homo sapiens, UniProt Q9NYL2) | 94.4% |
| Calcium/calmodulin-dependent protein kinase type 1 (CAMK1, Homo sapiens, UniProt Q14012) | 101% |
| Ephrin type-A receptor 2 (EPHA2, Homo sapiens, UniProt P29317) | 106% |
| Calcium/calmodulin-dependent protein kinase kinase 1 (CAMKK1, Homo sapiens, UniProt Q8N5S9) | 116% |
| SRSF protein kinase 1 (SRPK1, Homo sapiens, UniProt Q96SB4) | 97.2% |
| Serine/threonine-protein kinase SIK2 (SIK2, Homo sapiens, UniProt Q9H0K1) | 111% |
| Muscle, skeletal receptor tyrosine-protein kinase (MUSK, Homo sapiens, UniProt O15146) | 103% |
| Casein kinase I isoform epsilon (CSNK1E, Homo sapiens, UniProt P49674) | 112% |
| Serine/threonine-protein kinase Sgk2 (SGK2, Homo sapiens, UniProt Q9HBY8) | 105% |
| Ribosomal protein S6 kinase alpha-3 (RPS6KA3, Homo sapiens, UniProt P51812) | 98.6% |
| Vascular endothelial growth factor receptor 1 (FLT1, Homo sapiens, UniProt P17948) | 94.3% |
| Tyrosine-protein kinase receptor TYRO3 (TYRO3, Homo sapiens, UniProt Q06418) | 103% |
| Serine/threonine-protein kinase PAK 1 (PAK1, Homo sapiens, UniProt Q13153) | 87.7% |
| Casein kinase I isoform delta (CSNK1D, Homo sapiens, UniProt P48730) | 105% |
| Cyclin-dependent kinase 2, with cyclin E (CDK2, Homo sapiens, UniProt P24941) | 89.4% |
| Dual specificity protein kinase CLK2 (CLK2, Homo sapiens, UniProt P49760) | 105% |
| Protein kinase C theta type (PRKCQ, Homo sapiens, UniProt Q04759) | 97.5% |
| Tyrosine-protein kinase JAK1 (JAK1, Homo sapiens, UniProt P23458) | 105% |

Set 4
Organism: Sarcocystis neurona
Observed: parasite growth
Concentration: 10 µM
Time: 96 h
Notes: second screen
Reference: untreated
| SMILES | log2 fold change |
| --- | --- |
| CC1(C)S[C@@H]2[C@H](/N=C/N3CCCCCC3)C(=O)N2[C@H]1C(=O)O | 0.3 |
| OC[C@H]1O[C@@H](Oc2cc(O)cc(/C=C/c3ccc(O)cc3)c2)[C@H](O)[C@@H](O)[C@@H]1O | 0.26 |
| Cc1cccc(Nc2ccncc2S(=O)(=O)NC(=O)NC(C)C)c1 | 0.18 |
| OCCN(CCO)c1nc(N2CCCCC2)c2nc(N(CCO)CCO)nc(N3CCCCC3)c2n1 | 0.6 |
| O=c1n(CCCN2CCN(c3cccc(Cl)c3)CC2)nc2ccccn12 | 0.62 |
| Cc1nccn1CC1CCc2c(c3ccccc3n2C)C1=O (centres unmarked) | 0.44 |
| CC(=O)SCC(Cc1ccccc1)C(=O)NCC(=O)OCc1ccccc1 (centres unmarked) | 0.67 |
| O=C1CC[C@@H](C(=O)N2CSC[C@H]2C(=O)O)N1 | 0.41 |
| CC(=O)OCC(CCn1cnc2cnc(N)nc21)COC(C)=O | 0.35 |
| O=C1c2c(O)cc(O)cc2OC(c2ccc(O)c(O)c2)C1O (centres unmarked) | 0.11 |
| O=[N+]([O-])c1cccc2cn[nH]c12 | 0.16 |

Repeated from above (set 2):
| target | test | remaining binding |
| --- | --- | --- |
| Cyclin-dependent kinase 11A (CDK11A, Homo sapiens, UniProt Q9UQ88) | binding | 89% |
| Tyrosine-protein kinase ABL1, phosphorylated (ABL1, Homo sapiens, UniProt P00519) | cell-free assay | 100% |
| Cyclin-dependent kinase 14 (CDK14, Homo sapiens, UniProt O94921) | cell-free assay | 100% |
